# Experimental data pooled from the literature.
# Each numbered part is a random draw from the data of one study; scales do not carry over between parts. Positions count from the first letter of the parent shown.

# Set 1
# Target: CCNF, cyclin fold, Cln2 fusion (human)
# Method: yeast growth competition, sequencing
# Matrix: yeast
# Setting: strong parent motif
# Relative to: not given
# Direction: higher = stronger binding
# Parent: E2F1 docking peptide (human); PPVKRRLDLETDH; partner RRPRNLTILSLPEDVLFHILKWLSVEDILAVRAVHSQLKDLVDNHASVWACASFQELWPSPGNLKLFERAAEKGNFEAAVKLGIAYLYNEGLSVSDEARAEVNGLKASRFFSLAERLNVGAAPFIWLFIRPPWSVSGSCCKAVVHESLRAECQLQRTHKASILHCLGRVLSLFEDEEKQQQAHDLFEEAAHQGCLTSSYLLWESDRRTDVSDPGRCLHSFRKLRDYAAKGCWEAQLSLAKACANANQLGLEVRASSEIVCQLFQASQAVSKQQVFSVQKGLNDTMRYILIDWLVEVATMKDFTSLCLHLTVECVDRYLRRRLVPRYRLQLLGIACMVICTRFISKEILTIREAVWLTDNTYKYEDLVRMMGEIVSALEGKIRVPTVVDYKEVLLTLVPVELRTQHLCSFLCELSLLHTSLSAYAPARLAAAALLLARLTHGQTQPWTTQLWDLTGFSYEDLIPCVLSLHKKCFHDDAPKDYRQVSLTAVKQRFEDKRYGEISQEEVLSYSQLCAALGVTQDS
Change,normalised enrichment score
L7N,1.23
P2N,6.21
R5T,0.0103
H13D,5.11
R5I,-0.048
K4D,2.2
E10Q,6.75
P2F,6.66
V3F,2.89
R5L,-0.562
R6I,2.42
K4Q,6.3
R6L,2.95

# Set 2
# Target: Histone acetyltransferase KAT6A, both winged helices, GST fusion (KAT6A, Homo sapiens, UniProt Q92794, residues 1-181)
# Method: protein binding microarray
# Form: double-stranded DNA, one strand shown
# Matrix: in vitro
# Concentration: not given
# Setting: 8-mer, flanks averaged, mean of 2 arrays, mostly near background
# Relative to: not given
# Direction: higher = stronger binding
# Target sequence (chain): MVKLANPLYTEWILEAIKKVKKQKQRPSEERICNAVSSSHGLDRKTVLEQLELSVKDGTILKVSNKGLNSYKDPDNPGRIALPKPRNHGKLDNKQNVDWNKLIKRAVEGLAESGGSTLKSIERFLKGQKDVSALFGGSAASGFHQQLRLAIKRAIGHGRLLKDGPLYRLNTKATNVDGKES
Strand,E-score
ACTCCACT,-0.185
ACAATTAT,-0.00432
CGCACAGC,0.267
TTAAGTAA,-0.201
GGTCAGTA,0.0503
CCACAATA,-0.209
CTGTATTA,0.032
ACCTCCCG,0.18
AAAATTAG,-0.03
ATTACATG,-0.00831
CCGTATCA,0.225
AGTACGCA,0.0738
ACAGTACA,-0.0229
AGGAGATG,-0.137
GCGAGCAC,0.0649

# Set 3
# Target: ABI1, truncated, D143A, DHFR fusion (Arabidopsis thaliana)
# Method: DHFR PCA, deep sequencing
# Matrix: yeast
# Setting: methotrexate growth selection, single substitutions
# With: (+)-ABA 2500 µM
# Relative to: wild-type fitted maximum
# Direction: higher = stronger binding
# Parent: PYL1, truncated, DHFR fusion (Arabidopsis thaliana); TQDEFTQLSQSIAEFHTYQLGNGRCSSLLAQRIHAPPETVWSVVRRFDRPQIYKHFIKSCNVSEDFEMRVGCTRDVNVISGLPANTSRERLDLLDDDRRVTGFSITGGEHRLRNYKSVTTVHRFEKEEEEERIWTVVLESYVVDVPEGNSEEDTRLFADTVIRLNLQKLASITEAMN; partner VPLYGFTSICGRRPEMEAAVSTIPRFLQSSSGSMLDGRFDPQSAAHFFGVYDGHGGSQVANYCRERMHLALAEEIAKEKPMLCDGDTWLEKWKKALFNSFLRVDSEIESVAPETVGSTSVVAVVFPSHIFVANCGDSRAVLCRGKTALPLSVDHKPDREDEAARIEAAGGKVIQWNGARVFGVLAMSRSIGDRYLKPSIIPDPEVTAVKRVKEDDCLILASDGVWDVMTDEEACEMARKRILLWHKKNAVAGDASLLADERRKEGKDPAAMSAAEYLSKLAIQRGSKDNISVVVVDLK
Change,relative binding score [%]
T154D,-4.98
H55F,88.5
T39M,97.6
D92Y,88.6
R155G,81.7
V40W,-16.9
D3N,86.6
R45V,56.6
R46N,85.6
V118Q,96.5
V100W,65.2
F66E,97.9
R113L,103
A158K,-9.31

# Set 4
# Target: RNA binding protein fox-1 homolog 2, RRM domain, GST-SBP tag (RBFOX2, Homo sapiens, UniProt O43251-10, residues 100-194)
# Method: RNA Bind-n-Seq
# Form: RNA
# Matrix: in vitro
# Concentration: 365 nM
# Setting: natural RNA segment, single round, ends assumed
# Relative to: no-protein control
# Direction: higher = stronger binding
# All sequences stand within: GGGAGUUCUACAGUCCGACGAUC … UGGAAUUCUCGGGUGCCAA
# Target sequence (chain): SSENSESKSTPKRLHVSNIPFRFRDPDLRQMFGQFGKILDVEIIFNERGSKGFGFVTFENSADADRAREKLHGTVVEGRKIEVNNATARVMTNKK
Strand,RBNS enrichment (R)
CUGAAUCCAGGGCUUACUAAGUAGGGAAGUCAGUUUACAUAUUUCAGUUUUCCUCUGAUGUUUUUGAGGUACUGUGUAUUUGCAGAAGUUUAAGCAGAAGGGUUUUGUUU,0.558
AGGCUGCAGCCCAGAAACUCUACCUCAUCCACACUGGUGCAGGGAGCCCUCCUUGAACUGACCUUUGAUUGGUUUCUGCUUCAACUACCAAAAUGUUAUCUCCACUUCCC,0.302
AGUAUACAUAUAUAUUUAUAUCACAAUUUACGAAACCAAAAAGUUGAGUUUCCAAUGGAACCCUUGUUUUUUAAUAAUCGACUUUUUAAAUGUGAUCAGGACUAUAAUAU,0.466
AGGGCACAGACAGAGAGGCUACAGGGCGAGCUCUGACUGAAGAUGGGCCUUUGAAAUAUAGGUAUGCACCUGAGGUUGGGGGAGGGUCUGCACUCCCAAACCCCAGCGCA,5.03
UGAUACAGCACAUAUACAGAAUUAGCCAAAUGGUAUAAGACAAUAGAAAAAGGCUGUGGAUUCUUUGAGGACAUCACUAGAAAUCAUUCUUUGUCUCAAGUUCACACUCU,0.492
GCAUAAUUCGGCUAUAAAUGUAGCAAUGCUUGGAAAGGUAGUCAUCAAAUGAGACUAUUUGAGGGGACUAUUUGAAAUGAUUCUGGUAUUUCUUUUGGUAUCUUUCUUCC,2
CUUGCUUCCUCUUUAACCCGGAGAGGGACUCCCCUGUGGCUAUCCCCCAUCUCUACCAACAAAGUGUAUUCUUCAUAGAUAUUAGAUAAAUCUUCCAGGCUUCAUCAUCA,0.863
CAGAUGUAUGAACAUCCUUGGAGUGCCCACCCAGCACCCAGUGUUGAGUAUUAACCUUACAUUUUACCCGACUUAAGGAGGAAUAGUAGUGUAAGAGCUGCCCGGCUCCC,0.217
GCUGAUGGACUGUGCCCACCUUGUGAAGGCCAAUAGCAUUCAAGGUAAAAAUUGUGACAGUGGAGAAGAAAGUAAAUGAGAUCCUGAACCGAUUAGAAAAGACCAAAGUC,1.41
UUCAUUGUGUUUUCUUCGUGGAUUGUUUUUUCUGCGGGUCAUAUUCAUACCUUCUGAUGAAGUUGUACAACACCAGCAACAUUAUAAUGGCCCUGUAGCUCUGAAUGCUA,0.455
GUUCAAAACUAAUUGAUAAUUGAAGUAUCAAGAUACGUAGAACACCUCAGAGAUUUUUCUUCAGGAACUUCCACAAACUUUGAAUCCUUGUAUCUUUAUUUGGUAUUCAU,0.553
UUAAUGAACUAUUGUUAAUUCUUCCUAUUUUAAUGAAUGACAUUGAACUGAAUUUUUUGUCUGUUAAAUGAACUUGAUAGCUAAUAAAAAGACAACUAGCCAUCAAAAUC,0.589

# Set 5
# Target: Interferon regulatory factor 5, full length, phosphomimetic (IRF5, Homo sapiens, UniProt Q13568-2, residues 1-514, S451D/S453D/S456D/S462D)
# Method: protein-binding microarray
# Form: double-stranded DNA, one strand shown
# Matrix: in vitro
# Concentration: 940 nM top
# Setting: 60-bp whole probe
# With: salmon DNA 0.4 mg/ml
# Relative to: random background probes
# Direction: higher = stronger binding
# All sequences stand within: GCCTAGCAC … GTCTTGATTCGCTTGACGCTGCTG
Strand,fitted relative affinity
GAAGGACTGGACTATCGGGACGTGCTA,-0.777 z-score
TCATTTTGGTTTCTGGTACTGTGCTAG,4.74 z-score
TTTTTTTTTTTTTTTGGAATGTGCTAG,0.817 z-score
TTTTTTTTTTTTTCTGATCCGTGCTAG,1.08 z-score
TTAGAACTGAGTATCCATTAGTGCTAG,-0.193 z-score
GACGGTCTCGGTTACGGGACGTGCTAG,4.63 z-score
GACGGTCTCCTTTTCCTGAAGTGCTAG,0.857 z-score
CCCAATTCTCTTTTCACTTTGTGCTAG,2.49 z-score
CACGGACTGGGTTTCGGGACGTGCTAG,2.61 z-score
TTAGTTATCGACACTGGGTTAGTGCTA,0.4 z-score
TTAGGACTGCTTCTCCTTTCGTGCTAG,-0.177 z-score
CCAAATCTGTGTTATTAAAATGTGCTA,0.734 z-score
GACGAACTGAGATTCGAGACGTGCTAG,-0.498 z-score
TTAAATATCAGTATCGATTAGTGCTAG,5.63 z-score
TTAGGCATCGACTATCGGTTAGTGCTA,-0.0584 z-score

# Set 6
# Target: UBE2E3 UBC core domain (UniProt Q969T4)
# Sequence of UniProt Q969T4 (whole entry, looked up): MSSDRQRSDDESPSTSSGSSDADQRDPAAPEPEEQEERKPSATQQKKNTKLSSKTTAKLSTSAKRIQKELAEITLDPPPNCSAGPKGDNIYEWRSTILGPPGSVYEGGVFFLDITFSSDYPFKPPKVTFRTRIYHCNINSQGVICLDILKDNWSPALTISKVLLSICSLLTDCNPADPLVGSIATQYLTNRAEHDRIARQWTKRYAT
# Method: yeast two-hybrid
# Matrix: yeast
# Setting: mostly zero background
# Relative to: not given
# Direction: higher = stronger interaction
# B1: ARK2C RING domain (UniProt Q6ZSG1); chain EGEESDTDEKCTICLSMLEDGEDVRRLPCMHLFHQLCVDQWLAMSKKCPICRVDIETQLGAD
# B2: TRIM72 RING domain (UniProt Q6ZMU5); chain APGLLHQELSCPLCLQLFDAPVTAECGHSFCRACLGRVAGEPAADGTVLCPCCQAPTRPQALST
# B3: TRIM8 RING domain (UniProt Q9BZR9); chain WKNCFEEELICPICLHVFVEPVQLPCKHNFCRGCIGEAWAKDSGLVRCPECNQAYNQKPGLE
Sequence,lacZ reporter activity
B1 (ARK2C RING domain),5510
YWAMDSTFELCKICAESNKDVKIEPCGHLLCSCCLAAWQHSDSQTCPFCRCEIKGWEAVS (CBLC RING domain (UniProt Q9ULV8)),0
FPEHFVKSISCQICEHILADPVETNCKHVFCRVCILRCLKVMGSYCPSCRYPCFPTDLES (RAG1 RING domain (UniProt P15918)),0
QLRRLQEERTCKVCMDKEVSVVFIPCGHLVVCQECAPSLRKCPICRGIIKGTVRTF (BIRC2 RING domain (UniProt Q13490)),0
VTLSLTLPITCHICLGKVRQPVICINNHVFCSICIDLWLKNNSQCPACRVPITPENPCK (OBI1 RING domain (UniProt Q5W0B1)),0
RLTMMWEEVTCPICLDPFVEPVSIECGHSFCQECISQVGKGGGSVCPVCRQRFLLKNLRP (TRIM21 RING domain (UniProt P19474)),0
B2 (TRIM72 RING domain),0
FASPPDSNFVCSVCHGVLKRPARLPCSHIFCKKCILRWLARQKTCPCCRKEVKRKKVVH (RNF151 RING domain (UniProt Q2KHN1)),0
B3 (TRIM8 RING domain),0

# Set 7
# Target: Microphthalmia-associated transcription factor, full length (MITF, Homo sapiens, UniProt O75030-10, residues 1-413)
# Method: protein-binding microarray
# Form: double-stranded DNA, one strand shown
# Matrix: in vitro
# Concentration: not given
# Setting: k-mer, scored over probes, only values ≥0.25
# Direction: higher = stronger binding
# Target sequence (chain): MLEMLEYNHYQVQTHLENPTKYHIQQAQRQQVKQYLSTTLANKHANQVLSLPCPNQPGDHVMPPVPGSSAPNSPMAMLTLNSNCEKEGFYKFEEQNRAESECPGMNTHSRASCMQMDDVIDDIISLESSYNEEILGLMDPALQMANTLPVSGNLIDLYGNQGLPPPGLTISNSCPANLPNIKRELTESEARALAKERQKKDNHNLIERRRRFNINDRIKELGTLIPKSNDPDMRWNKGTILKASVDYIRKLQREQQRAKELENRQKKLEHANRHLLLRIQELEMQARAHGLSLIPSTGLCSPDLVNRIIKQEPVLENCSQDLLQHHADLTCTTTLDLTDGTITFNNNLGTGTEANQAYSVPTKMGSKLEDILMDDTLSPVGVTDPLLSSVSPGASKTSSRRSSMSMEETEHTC
Strand,E-score
ACCCGTG,0.393
AACATGA,0.293
ACGTGAA,0.264
CACGAGG,0.466
GCATCAC,0.268
CCACGAG,0.407
ACCACGT,0.385
AGTCACG,0.468
TGATGCA,0.268
GCAGTCA,0.267
GGCGTGA,0.263
CATATGA,0.366
CCTCGAG,0.251

# Excerpt of the above (set 2):
Strand,E-score
GGTCAGTA,0.0503
CCACAATA,-0.209
CTGTATTA,0.032
ACCTCCCG,0.18
AAAATTAG,-0.03
ATTACATG,-0.00831
CCGTATCA,0.225
